Results of several laboratories.
Every numbered part comes from another study and shows a few of its results, in no order.

Set 1 — technique: protein binding microarray; molecule type: double-stranded DNA, one strand shown; medium: in vitro; concentration: not given; relative to: not given; reading: higher = stronger binding
Target: Histone acetyltransferase KAT6A, winged helix 2, GST fusion (KAT6A, Homo sapiens, UniProt Q92794, residues 85-181)
Setting: 8-mer, flanks averaged, mean of 2 arrays, mostly near background
Construct (chain): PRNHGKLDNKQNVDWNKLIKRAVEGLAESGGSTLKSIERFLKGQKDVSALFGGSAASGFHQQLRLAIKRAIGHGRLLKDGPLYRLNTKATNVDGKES
`GAAACGAC` has an E-score of 0.0222.
With `CGTGTGTA` the E-score was -0.104.
The E-score of `AACTGAGA` is reported as 0.076.
With `TCGTACGA` the E-score was -0.0355.
`CGACCCCG` has an E-score of 0.029.
The E-score of `ACCCCATC` is reported as -0.0116.
`AAAGCTAT` gave an E-score of -0.0213.
For `AGTGTAAG`, the E-score was -0.191.
With `GTAGCTAA` the E-score was -0.187.
The E-score of `GACCTCTA` is reported as 0.0329.
`GGGGTAGA` gave an E-score of -0.0551.
For `CAATTCTG`, the E-score was 0.034.
The E-score of `ACGTCGCA` is reported as 0.00473.
`GAATACAA` has an E-score of 0.135.
`CATAAAGG` gave an E-score of 0.0783.
`AGCGGTCC` gave an E-score of 0.163.
`CGCGTAGC` gave an E-score of 0.167.
The E-score of `GTACATAA` is reported as -0.0901.
With `ATTGGACC` the E-score was -0.0504.
`AACTGTCG` has an E-score of -0.0219.
For `ATCCAGAC`, the E-score was 0.0687.
With `TGCTGAAA` the E-score was 0.161.
For `AGAATAGA`, the E-score was -0.057.
`CCAACGAG` has an E-score of -0.0689.
With `GGATAACC` the E-score was -0.0912.

Set 2 — technique: RNA Bind-n-Seq; molecule type: RNA; medium: in vitro; concentration: 200 nM; setting: whole 134-nt RNA, ends assumed; added: 150 mM KCl; relative to: input library; reading: higher = stronger binding
Target: Fragile X messenger ribonucleoprotein 1, C-terminal low-complexity region (Fmr1, Mus musculus, UniProt P35922)
`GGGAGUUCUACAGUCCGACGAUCAGUCCUGUGCUACACAUCGUAUGUACCGAAUCGGCCCCCGGGGCCCCCGGCCCCCGGAAAGUAUUAUGUUACGCCGUUCGGAUCUGCACUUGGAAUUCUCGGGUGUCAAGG` has a log2 enrichment of -0.522.
The log2 enrichment of `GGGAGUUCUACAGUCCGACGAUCAGUCCUGUGCUACACAUCGUAUGUACCGAAUCGGGGUUUUGGGUUUUGGGUUUUGGGAAAGUAUUAUGUUACGCCGUUCGGAUCUGCACUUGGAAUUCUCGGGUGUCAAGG` is reported as 0.699.
With `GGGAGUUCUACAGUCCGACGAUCAGUCCUGUGCUACACAUCGUAUGUACCGAAUCGGGCCCCGGGGCCCCGGGCCCCGGGGAAAGUAUUAUGUUACGCCGUUCGGAUCUGCACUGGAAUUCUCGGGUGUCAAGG` the log2 enrichment was -0.0579.
For `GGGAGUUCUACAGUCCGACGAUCUGGGAGGUGGAUUUUGUUUAUUUUUUUAGCUCAUUUCCAGGGGCGGGAAUUUUUUUUUAAUAUGUGUCAUGAAUAAAGUUGUUUUUGAAAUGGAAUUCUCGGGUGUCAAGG`, the log2 enrichment was 0.16.
For `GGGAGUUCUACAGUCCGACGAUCGCAGGAAGUAAAAACAUAUGGAAAUGCUUCGGAUAGUGGCAGGGGUGGGGGUUGCUAAGGAAAGGGUGGGAUGGGAGUGGGUAAAGAGUUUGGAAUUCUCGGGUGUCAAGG`, the log2 enrichment was 0.195.
`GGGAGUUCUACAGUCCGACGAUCUGGGAGGUGGAUUUUGUUUAUUUUUUUAGCUCAAUUCCAGGGGUGGGAAUUUUUUUUUAAUAUGUGUCAUGAAUAAAGUUGUUUUUGAAAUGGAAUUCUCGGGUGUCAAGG` gave a log2 enrichment of 0.593.
With `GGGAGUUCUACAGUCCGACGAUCGCAGGAAGUAAAAACAAAUGGAAAUGCUUCGGAUAGUGGCAGGGGUGGGGGUUGCUAAGGAAAGGGUGGUAUGGGAGUGGGUAAAGAGUUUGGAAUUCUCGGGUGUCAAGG` the log2 enrichment was 0.0398.
The log2 enrichment of `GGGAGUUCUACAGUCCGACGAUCAGUCCUGUGCUACACAUCGUAUGUACCGAAUCGGGGUGGGGUUUUUUUGGGGUGGGGAAAGUAUUAUGUUACGCCGUUCGGAUCUGCACUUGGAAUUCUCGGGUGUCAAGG` is reported as 1.38.
`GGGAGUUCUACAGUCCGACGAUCACCAUGCAGGUGGGCAUCUUUGGGAAGUGGGACAAGGGGGGGAUAGGGAGGGGGGUAACACUUUGGGAACAGGUGGUCCCAGGUCGUUUCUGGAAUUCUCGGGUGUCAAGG` gave a log2 enrichment of 0.686.
For `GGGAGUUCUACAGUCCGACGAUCCCUCAAGUCCUGUGCUACACAUCGUAUGUACCGAAUCGGCCGGCCGGGGCCGGAAAGUAUUAUGUUACGCCGUUCGGAUCUGCACUUCCAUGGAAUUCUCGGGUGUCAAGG`, the log2 enrichment was 0.0199.

Set 3 — technique: universal PBM; molecule type: double-stranded DNA, one strand shown; medium: in vitro; concentration: 600 nM; reading: higher = stronger binding
Target: Sal-like protein 4, full length isoform A (SALL4, Homo sapiens, UniProt Q9UJQ4, residues 1-1053)
Chain of UniProt Q9UJQ4 (whole entry, looked up): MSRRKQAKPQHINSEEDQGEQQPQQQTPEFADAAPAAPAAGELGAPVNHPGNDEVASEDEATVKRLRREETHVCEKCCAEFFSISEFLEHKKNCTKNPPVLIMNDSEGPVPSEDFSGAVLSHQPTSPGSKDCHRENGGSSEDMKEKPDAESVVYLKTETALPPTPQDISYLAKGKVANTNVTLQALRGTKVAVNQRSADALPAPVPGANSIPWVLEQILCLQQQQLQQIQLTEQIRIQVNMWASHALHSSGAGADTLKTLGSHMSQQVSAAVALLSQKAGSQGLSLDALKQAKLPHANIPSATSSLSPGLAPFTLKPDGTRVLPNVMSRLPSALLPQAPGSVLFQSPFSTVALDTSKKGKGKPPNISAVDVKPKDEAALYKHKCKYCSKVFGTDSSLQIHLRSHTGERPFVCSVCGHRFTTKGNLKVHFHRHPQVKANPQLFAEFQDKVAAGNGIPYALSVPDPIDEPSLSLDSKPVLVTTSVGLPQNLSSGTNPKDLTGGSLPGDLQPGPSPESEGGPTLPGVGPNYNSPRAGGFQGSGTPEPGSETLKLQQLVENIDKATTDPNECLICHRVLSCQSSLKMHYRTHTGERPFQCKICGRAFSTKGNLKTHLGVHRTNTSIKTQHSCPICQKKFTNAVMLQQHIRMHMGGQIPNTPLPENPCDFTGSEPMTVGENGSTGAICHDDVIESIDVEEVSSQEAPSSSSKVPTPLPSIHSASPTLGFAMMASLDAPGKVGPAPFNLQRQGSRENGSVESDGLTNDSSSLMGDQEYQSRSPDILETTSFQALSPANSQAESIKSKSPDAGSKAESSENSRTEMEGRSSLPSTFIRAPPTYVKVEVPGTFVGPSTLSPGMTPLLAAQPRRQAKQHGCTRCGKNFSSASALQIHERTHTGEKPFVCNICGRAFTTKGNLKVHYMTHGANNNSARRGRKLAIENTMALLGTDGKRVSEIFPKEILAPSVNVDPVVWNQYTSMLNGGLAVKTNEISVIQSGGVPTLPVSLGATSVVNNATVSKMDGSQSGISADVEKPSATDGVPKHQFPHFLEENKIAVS
Setting: 8-mer, flanks averaged, mean of replicates
The E-score of `CAAGTCTG` is reported as -0.0822.
The E-score of `AGCCTACA` is reported as -0.0314.
The E-score of `CCGGTGTC` is reported as -0.332.
The E-score of `CCAGATGC` is reported as -0.157.
With `GAACTGCA` the E-score was 0.00496.
`CATCTGAG` has an E-score of -0.107.
The E-score of `ACTCGCGA` is reported as 0.0194.
With `ACAAGCAA` the E-score was 0.139.
`CGTCACAC` gave an E-score of -0.134.
`CATTGCCC` gave an E-score of -0.158.
With `CTGACAAA` the E-score was 0.132.
`AGCGGGTC` has an E-score of -0.365.
`CTAGCCGC` has an E-score of -0.319.
With `CGTAATAG` the E-score was 0.222.
For `CAACTCCC`, the E-score was -0.106.
The E-score of `CACAGGGA` is reported as -0.253.
`CAGGGACA` gave an E-score of -0.174.
`CCCTCGTA` has an E-score of -0.135.
The E-score of `ATTGACGG` is reported as 0.0805.
For `ACCTTCGT`, the E-score was -0.00617.
With `CAACGGTC` the E-score was -0.164.

Set 4 — technique: RNA Bind-n-Seq; molecule type: RNA; medium: in vitro; concentration: not given; relative to: input RNA pool; reading: higher = stronger binding
Target: RING finger protein unkempt homolog, zinc fingers 1-6, GST-SBP tag (UNK, Homo sapiens, UniProt Q9C0B0, residues 30-357)
Chain of UniProt Q9C0B0 (30-357, looked up): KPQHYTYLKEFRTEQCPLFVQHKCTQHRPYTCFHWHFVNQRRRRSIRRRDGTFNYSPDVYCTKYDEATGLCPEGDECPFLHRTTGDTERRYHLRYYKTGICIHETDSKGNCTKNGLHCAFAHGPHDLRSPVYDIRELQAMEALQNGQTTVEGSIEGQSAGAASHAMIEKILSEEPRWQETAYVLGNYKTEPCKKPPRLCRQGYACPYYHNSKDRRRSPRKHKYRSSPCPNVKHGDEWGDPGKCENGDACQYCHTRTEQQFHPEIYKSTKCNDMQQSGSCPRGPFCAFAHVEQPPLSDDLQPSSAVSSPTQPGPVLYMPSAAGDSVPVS
Setting: RNA with constant flanks, human and mouse sites, ends assumed
`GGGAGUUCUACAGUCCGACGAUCGAGGUGGUGCCUAUUCAUCAGCAGGACAUUCCUGUUGAUAAUCCCAUCGAGAGCAAUAAUAUCUUCCUAGUGGCCCCAUUGAUCAUCUGCCACGUGAUUGACAAGCGUAGCCCCCUGUAUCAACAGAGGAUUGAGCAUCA` gave a bound/input enrichment of 0.139 ratio.
`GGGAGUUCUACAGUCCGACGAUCGAAGAAGACGAACACUUCGAUGACACAGUGGUUUGUCUUGAUACUUAUAAUUGUGAUCUGCAUUUUAAAAUCUCGAGAGACCGUCUGAGUGCUUCUUCCCUUACUAUGGAGAGUUUUGCUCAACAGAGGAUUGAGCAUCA` has a bound/input enrichment of 0.222 ratio.
With `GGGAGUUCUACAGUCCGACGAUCGCUGCAUGUCUCCAAACUCUUCAACCAUCCCAAUAUCGUGCCAUAUCGAGCCACUUUUAUUGCAGACAAUGAGCUGUGGGUUGUCACAUCAUUCAUGGCAUACGGUUCUGCAAAAGAUCUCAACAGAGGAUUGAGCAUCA` the bound/input enrichment was 0.185 ratio.
For `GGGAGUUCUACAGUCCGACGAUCUUUCAUGCCCGGCCUUUGUUCCCCCCGUCCAUGUGUCCUUUAGUUUCAAACAGAUCUUUAUAGUUUGUGCUUCAUAAGCCAAUUCUUAUUAUGAUUUUGGGGGACUGUUCUUCAAAGAGCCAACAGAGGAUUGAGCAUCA`, the bound/input enrichment was 0.687 ratio.
For `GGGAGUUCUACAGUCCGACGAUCCCUGAGAUAUGCACCCUGUGUCCGGGAGGUAUGCACAAUUUGUCCAGAGUGGCUGCUUACUGUGAGGAUACAUCGAAGCUAAUGCAGGCCCGAUGCUGCCUGAAUCAGAAGGGCACCAUCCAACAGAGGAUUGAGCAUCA`, the bound/input enrichment was 0.117 ratio.
For `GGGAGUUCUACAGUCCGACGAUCGGAGGUCAGGUUCCUGACACAAACUACAUAUUUAUGGGUGAUUUUGUAGACAGAGGUUACUAUAGUUUGGAGACCUUCACUUACCUUCUUGCAUUAAAGGCUAAAUGGCCUGAUCGUAUUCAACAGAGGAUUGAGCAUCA`, the bound/input enrichment was 0.499 ratio.
With `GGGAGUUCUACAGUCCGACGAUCAGUAAAAAUCUACCAAUUCUCAGGCACCAGGGUCAGCAGUUGGCCAACAAAUUGCAGUGUCCUUUUGUAGACGUACCUACUGGUACAUAUCCUCGUAAAUUUAAUGAAUCACAAAUAAAGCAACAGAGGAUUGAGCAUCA` the bound/input enrichment was 0.918 ratio.
`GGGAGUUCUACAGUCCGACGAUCGUUCCUGCUUUAAUUUUUGGACAGCUUUUAACAUCCAGUAACUAUGAUGAUGAUGAGAAAAAAGUUACAGGUGGUCGUAAUGGUUAUGGUGCAAAACUUUGUAAUAUUUUCAGUACAAAGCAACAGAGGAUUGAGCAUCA` has a bound/input enrichment of 0.363 ratio.
With `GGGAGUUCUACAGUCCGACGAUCAUAAAAAGGAAGUUGGUUAUACUCGUCAAAAAGUGCCUUCUCUGUAAAGUGGGCGAAGACCUCUGCCGGGAACCUGCGCCCUCCCUGAUGUCACCAGAUCACCUUCUGGACAGUGACAUGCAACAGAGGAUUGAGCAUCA` the bound/input enrichment was 0.108 ratio.
`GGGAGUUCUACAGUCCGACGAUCUGUGAAAUUCACCAUGGGCAGACUGGAGGAAUAUAUGUCCAUGAAAAAGGAAGAGGACAAUUCAUAGAGAAUAAAAUCUAUGCAAACAACUUUGCAGGUGUAUGGAUUACCUCAAAUAGUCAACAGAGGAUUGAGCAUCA` gave a bound/input enrichment of 0.434 ratio.
`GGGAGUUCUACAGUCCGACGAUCCUCUUCUCCCAAUUUAAGUGGUUCUGUACCACAAAGAAUCUUGAUACAUUUUCACAAAUAACUGAUUGGGCUUCAUACUUUAUGCUGGCUGUGUCCUGAUACCCAUGUACUUAUGGUAAGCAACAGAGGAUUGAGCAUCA` gave a bound/input enrichment of 0.376 ratio.

For quick reference, copied from above (set 2):
The log2 enrichment of `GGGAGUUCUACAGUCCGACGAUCAGUCCUGUGCUACACAUCGUAUGUACCGAAUCGGGGUUUUGGGUUUUGGGUUUUGGGAAAGUAUUAUGUUACGCCGUUCGGAUCUGCACUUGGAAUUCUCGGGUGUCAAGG` is reported as 0.699.
With `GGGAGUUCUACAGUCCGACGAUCAGUCCUGUGCUACACAUCGUAUGUACCGAAUCGGGCCCCGGGGCCCCGGGCCCCGGGGAAAGUAUUAUGUUACGCCGUUCGGAUCUGCACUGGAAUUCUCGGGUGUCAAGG` the log2 enrichment was -0.0579.
For `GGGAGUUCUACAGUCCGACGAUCUGGGAGGUGGAUUUUGUUUAUUUUUUUAGCUCAUUUCCAGGGGCGGGAAUUUUUUUUUAAUAUGUGUCAUGAAUAAAGUUGUUUUUGAAAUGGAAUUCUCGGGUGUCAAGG`, the log2 enrichment was 0.16.
For `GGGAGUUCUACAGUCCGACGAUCGCAGGAAGUAAAAACAUAUGGAAAUGCUUCGGAUAGUGGCAGGGGUGGGGGUUGCUAAGGAAAGGGUGGGAUGGGAGUGGGUAAAGAGUUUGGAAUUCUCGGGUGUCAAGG`, the log2 enrichment was 0.195.
`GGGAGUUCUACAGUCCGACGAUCUGGGAGGUGGAUUUUGUUUAUUUUUUUAGCUCAAUUCCAGGGGUGGGAAUUUUUUUUUAAUAUGUGUCAUGAAUAAAGUUGUUUUUGAAAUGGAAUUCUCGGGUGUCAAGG` gave a log2 enrichment of 0.593.
With `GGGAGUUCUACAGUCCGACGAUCGCAGGAAGUAAAAACAAAUGGAAAUGCUUCGGAUAGUGGCAGGGGUGGGGGUUGCUAAGGAAAGGGUGGUAUGGGAGUGGGUAAAGAGUUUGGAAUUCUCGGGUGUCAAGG` the log2 enrichment was 0.0398.
The log2 enrichment of `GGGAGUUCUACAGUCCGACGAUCAGUCCUGUGCUACACAUCGUAUGUACCGAAUCGGGGUGGGGUUUUUUUGGGGUGGGGAAAGUAUUAUGUUACGCCGUUCGGAUCUGCACUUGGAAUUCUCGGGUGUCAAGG` is reported as 1.38.
`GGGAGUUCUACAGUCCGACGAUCACCAUGCAGGUGGGCAUCUUUGGGAAGUGGGACAAGGGGGGGAUAGGGAGGGGGGUAACACUUUGGGAACAGGUGGUCCCAGGUCGUUUCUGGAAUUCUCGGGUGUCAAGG` gave a log2 enrichment of 0.686.
